Measured values from different studies.
Protocols differ between the studies behind these lines. ± marks the error that the study gave.
B1: CFH 1108-1231 R1215Q (Homo sapiens, UniProt P08603); sequence looked up; chain KCGPPPPIDNGDITSFPLSVYAPASSVEYQCQNLYQLEGNKRITCRNGQWSEPPKCLHPCVISREIMENYNIALRWTAKQKLYSRTGESVEFVCKRGYRLSSRSHTLQTTCWDGKLEYPTCAKR
B2: Mena EVH1 1-113 (Homo sapiens, UniProt Q8N8S7); chain MSEQSICQARAAVMVYDDANKKWVPAGGSTGFSRVHIYHHTGNNTFRVVGRKIQDHQVVINCAIPKGLKYNQATQTFHQWRDARQVYGLNFGSKEDANVFASAMMHALEVLNS
B3: IgG L:G68E; V domains shown; VH QVQLVQSGAEVKKPGASVKVSCKASGYTFTNYGLSWVRQAPGQGLEWMGWISANNGDTNYGQEFQGRVTMTTDTSTSTAYMELRSLRSDDTAVYYCARDSSSSWARWFFDLWGRGTLVTVSS; VL SYVLTQPPSVSVAPGKTARITCGGNIIGSKLVHWYQQKPGQAPVLVIYDDGDRPSGIPERFSGSNSENTATLTISRVEAGDEADYYCQVWDTGSDPVVFGGGTKLTVL
B4: FBLN4 (Homo sapiens, UniProt O95967); N-glycosylated; sequence looked up; chain SASPQDSEEPDSYTECTDGYEWDPDSQHCRDVNECLTIPEACKGEMKCINHYGGYLCLPRSAAVINDLHGEGPPPPVPPAQHPNPCPPGYEPDDQDSCVDVDECAQALHDCRPSQDCHNLPGSYQCTCPDGYRKIGPECVDIDECRYRYCQHRCVNLPGSFRCQCEPGFQLGPNNRSCVDVNECDMGAPCEQRCFNSYGTFLCRCHQGYELHRDGFSCSDIDECSYSSYLCQYRCINEPGRFSCHCPQGYQLLATRLCQDIDECESGAHQCSEAQTCVNFHGGYRCVDTNRCVEPYIQVSENRCLCPASNPLCREQPSSIVHRYMTITSERSVPADVFQIQATSVYPGAYNAFQIRAGNSQGDFYIRQINNVSAMLVLARPVTGPREYVLDLEMVTMNSLMSYRASSVLRLTVFVGAYTF
B5: UBE3A 1-64 (Homo sapiens, UniProt Q05086-2); sequence looked up; chain MKRAAAKHLIERYYHQLTEGCGNEACTNEFCASCPTFLRMDNNAAAIKALELYKINAKLCDPHP
B6: Pigr 19-135 F5A/Y23A/P25A (Mus musculus, UniProt O70570); sequence looked up; chain KSPIAGPQEVSSIEGDSVSITCAYADTSVNRHTRKYWCRQGASGMCTTLISSNGYLSKEYSGRANLINFPENNTFVINIEQLTQDDTGSYKCGLGTSNRGLSFDVSLEVSQVPELPS
B7: FIBH residues 1259-1853 (Bombyx mori); N-terminal Alexa Fluor 488; chain GAGAGSGAGAGSGAGAGSGAGAGSGAGYGAGVGAGYGAGYGAGAGAGYGAGAGSGAGSGAGAGSGAGAGSGAGAGSGAGAGSGAGAGSGAGAGSGAGAGSGAGAGSGAGAGYGAGYGAGAGAGYGAGAGSGAGSGAGAGSGAGAGSGAGAGSGAGAGSGAGAGSGAGAGSGAGAGSGAGAGYGAGVGAGYGAGYGAGAGAGYGAGAGSGAGSGAGAGSGAGAGSGAGAGSGAGVGSGAGAGSGAGAGSGAGAGSGAGAGYGAGYGAGAGAGYGAGAGSGAGSGAGAGSGAGAGSGAGAGSGAGAGSGAGAGSGAGAGSGAGAGSGAGVGYGAGVGAGYGAGYGAGAGAGYGAGAGSGAAS
B8: PLXNC1 1198-1305 T1264V/R1265V (Homo sapiens, UniProt O60486); chain TVALNVVFEKIPENESADVCRNISVNVLDCDTIGQAKEKIFQAFLSKNGSPYGLQLNEIGLELQMGVVQKELLDIDSSSVILEDGITKLNTIGHYEISNGSTIKVFKK
B9: C1S 438-688 S632A (Homo sapiens, UniProt P09871); chain IIGGSDADIKNFPWQVFFDNPWAGGALINEYWVLTAAHVVEGNREPTMYVGSTSVQTSRLAKSKMLTPEHVFIHPGWKLLEVPEGRTNFDNDIALVRLKDPVKMGPTVSPICLPGTSSDYNLMDGDLGLISGWGRTEKRDRAVRLKAARLPVAPLRKCKEVKVEKPTADAEAYVFTPNMICAGGEKGMDSCKGDAGGAFAVQDPNDKTKFYAAGLVSWGPQCGTYGLYTRVKNYVDWIMKTMQENSTPRED
B10: Cacna1c 1647-1777 (Mus musculus, UniProt Q01815); sequence looked up; chain NALSLQAGLRTLHDIGPEIRRAISGDLTAEEELDKAMKEAVSAASEDDIFRRAGGLFGNHVTYYQSDSRGNFPQTFATQRPLHINKTGNNQADTESPSHEKLVDSTFTPSSYSSTGSNANINNANNTALGR
B11: mxt 577-640 (Drosophila melanogaster, UniProt Q9VR35); sequence looked up; chain SRVSYDIEHLLYYSMSPHSWTLPTDWQKMQETAPSILRNKDLQDESQRFDGDKYLASIKTAAKR
B12: CFH domains 1108-1231 (Homo sapiens, UniProt P08603); sequence looked up; chain KCGPPPPIDNGDITSFPLSVYAPASSVEYQCQNLYQLEGNKRITCRNGQWSEPPKCLHPCVISREIMENYNIALRWRAKQKLYSRTGESVEFVCKRGYRLSSRSHTLRTTCWDGKLEYPTCAKR
Sequence of UniProt P01024 (whole entry, looked up): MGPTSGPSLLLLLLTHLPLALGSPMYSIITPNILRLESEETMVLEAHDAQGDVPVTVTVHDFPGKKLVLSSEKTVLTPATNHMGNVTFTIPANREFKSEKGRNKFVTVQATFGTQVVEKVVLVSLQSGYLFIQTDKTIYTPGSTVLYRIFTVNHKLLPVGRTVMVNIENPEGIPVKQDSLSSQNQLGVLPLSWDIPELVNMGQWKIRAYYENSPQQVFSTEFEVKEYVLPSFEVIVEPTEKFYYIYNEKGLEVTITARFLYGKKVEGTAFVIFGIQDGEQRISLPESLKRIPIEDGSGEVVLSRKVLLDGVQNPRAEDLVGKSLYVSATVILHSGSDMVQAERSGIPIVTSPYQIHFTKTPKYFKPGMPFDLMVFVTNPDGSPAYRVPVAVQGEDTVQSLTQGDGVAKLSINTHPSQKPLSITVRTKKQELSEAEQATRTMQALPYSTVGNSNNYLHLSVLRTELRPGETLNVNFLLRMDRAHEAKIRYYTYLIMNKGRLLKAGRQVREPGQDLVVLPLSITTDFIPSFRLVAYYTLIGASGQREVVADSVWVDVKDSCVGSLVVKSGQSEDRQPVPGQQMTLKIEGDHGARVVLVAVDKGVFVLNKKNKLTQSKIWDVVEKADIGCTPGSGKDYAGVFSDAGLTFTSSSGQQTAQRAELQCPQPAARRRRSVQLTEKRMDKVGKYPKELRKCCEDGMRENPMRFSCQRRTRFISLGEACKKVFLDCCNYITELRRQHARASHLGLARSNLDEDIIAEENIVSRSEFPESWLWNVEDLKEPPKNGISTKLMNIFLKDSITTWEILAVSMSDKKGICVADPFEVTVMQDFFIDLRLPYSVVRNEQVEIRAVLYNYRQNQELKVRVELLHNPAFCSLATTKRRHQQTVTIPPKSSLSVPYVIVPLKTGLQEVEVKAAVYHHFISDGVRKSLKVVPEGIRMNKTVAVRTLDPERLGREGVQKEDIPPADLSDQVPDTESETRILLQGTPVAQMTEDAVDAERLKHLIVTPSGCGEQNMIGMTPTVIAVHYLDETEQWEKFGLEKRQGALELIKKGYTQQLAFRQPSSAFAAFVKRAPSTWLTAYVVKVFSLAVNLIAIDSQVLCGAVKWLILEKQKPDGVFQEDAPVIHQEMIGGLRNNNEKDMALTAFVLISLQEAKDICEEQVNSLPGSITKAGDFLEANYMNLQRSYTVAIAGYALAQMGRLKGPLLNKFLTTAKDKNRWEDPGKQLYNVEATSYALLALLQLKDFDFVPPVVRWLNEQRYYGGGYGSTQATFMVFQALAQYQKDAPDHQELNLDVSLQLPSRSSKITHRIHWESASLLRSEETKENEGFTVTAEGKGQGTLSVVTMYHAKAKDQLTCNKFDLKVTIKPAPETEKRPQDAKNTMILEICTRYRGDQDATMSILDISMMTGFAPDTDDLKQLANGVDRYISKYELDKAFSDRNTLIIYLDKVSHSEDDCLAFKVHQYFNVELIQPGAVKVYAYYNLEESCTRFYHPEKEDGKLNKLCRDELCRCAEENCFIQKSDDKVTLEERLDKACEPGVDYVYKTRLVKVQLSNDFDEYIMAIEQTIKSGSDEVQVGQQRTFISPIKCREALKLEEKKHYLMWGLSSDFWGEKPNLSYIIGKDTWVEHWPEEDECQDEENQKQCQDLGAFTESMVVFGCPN
Sequence of UniProt P41968 (whole entry, looked up): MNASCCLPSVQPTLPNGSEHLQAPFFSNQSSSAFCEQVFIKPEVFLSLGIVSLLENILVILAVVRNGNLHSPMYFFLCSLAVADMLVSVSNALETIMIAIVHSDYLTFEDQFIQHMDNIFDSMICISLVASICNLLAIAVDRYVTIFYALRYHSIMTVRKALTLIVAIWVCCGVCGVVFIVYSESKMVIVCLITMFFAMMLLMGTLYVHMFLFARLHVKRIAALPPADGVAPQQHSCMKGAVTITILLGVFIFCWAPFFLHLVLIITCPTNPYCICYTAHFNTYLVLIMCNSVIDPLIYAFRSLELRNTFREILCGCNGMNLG
Sequence of UniProt P20827 (whole entry, looked up): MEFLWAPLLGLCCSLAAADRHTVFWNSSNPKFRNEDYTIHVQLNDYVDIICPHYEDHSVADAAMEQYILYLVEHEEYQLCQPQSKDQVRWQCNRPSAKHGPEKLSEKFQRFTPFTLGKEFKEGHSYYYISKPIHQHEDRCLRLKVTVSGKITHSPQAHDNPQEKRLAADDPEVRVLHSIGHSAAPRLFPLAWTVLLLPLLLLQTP
Sequence of UniProt P05155 (whole entry, unmodified, looked up): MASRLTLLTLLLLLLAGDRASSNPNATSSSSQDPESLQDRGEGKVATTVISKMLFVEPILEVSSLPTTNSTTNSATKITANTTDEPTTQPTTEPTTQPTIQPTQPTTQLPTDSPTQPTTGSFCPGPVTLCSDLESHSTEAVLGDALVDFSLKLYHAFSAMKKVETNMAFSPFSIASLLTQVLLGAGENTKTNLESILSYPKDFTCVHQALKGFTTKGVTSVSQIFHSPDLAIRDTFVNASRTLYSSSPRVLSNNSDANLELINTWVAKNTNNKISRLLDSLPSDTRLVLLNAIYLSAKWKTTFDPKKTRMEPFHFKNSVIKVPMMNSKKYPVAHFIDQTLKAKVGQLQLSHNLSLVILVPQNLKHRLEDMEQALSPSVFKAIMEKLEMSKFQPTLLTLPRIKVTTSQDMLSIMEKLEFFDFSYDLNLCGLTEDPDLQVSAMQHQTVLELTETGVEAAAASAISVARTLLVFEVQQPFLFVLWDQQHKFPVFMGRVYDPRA
Sequence of UniProt Q9QY76 (whole entry, looked up): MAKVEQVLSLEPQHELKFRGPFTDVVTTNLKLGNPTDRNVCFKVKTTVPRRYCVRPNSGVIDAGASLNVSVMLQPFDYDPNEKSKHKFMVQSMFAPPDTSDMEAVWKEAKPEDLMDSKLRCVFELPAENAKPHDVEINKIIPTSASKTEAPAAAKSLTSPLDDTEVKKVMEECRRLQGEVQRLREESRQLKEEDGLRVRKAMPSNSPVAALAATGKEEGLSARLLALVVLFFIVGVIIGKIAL
Sequence of UniProt P54609 (whole entry, looked up): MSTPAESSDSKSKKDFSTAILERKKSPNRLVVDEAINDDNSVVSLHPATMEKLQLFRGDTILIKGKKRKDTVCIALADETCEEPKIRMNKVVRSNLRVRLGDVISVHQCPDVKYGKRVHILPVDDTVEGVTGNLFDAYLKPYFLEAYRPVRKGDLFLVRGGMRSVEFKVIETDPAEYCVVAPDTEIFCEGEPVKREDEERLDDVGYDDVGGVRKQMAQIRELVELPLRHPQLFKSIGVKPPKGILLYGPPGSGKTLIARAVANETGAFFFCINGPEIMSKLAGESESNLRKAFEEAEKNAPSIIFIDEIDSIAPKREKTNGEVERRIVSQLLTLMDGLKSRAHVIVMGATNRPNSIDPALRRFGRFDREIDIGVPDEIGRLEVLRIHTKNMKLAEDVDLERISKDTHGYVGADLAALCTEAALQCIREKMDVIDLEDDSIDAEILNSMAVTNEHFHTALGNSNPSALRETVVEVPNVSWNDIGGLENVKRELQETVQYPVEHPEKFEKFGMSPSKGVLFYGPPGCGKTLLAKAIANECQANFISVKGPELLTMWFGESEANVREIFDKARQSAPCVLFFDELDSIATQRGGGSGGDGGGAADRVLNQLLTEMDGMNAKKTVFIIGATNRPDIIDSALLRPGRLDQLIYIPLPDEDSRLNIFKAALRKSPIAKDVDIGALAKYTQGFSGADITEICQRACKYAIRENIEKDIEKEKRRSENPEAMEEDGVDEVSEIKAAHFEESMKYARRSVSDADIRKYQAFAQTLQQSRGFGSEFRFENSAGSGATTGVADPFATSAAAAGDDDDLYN
Sequence of UniProt P55036 (whole entry, looked up): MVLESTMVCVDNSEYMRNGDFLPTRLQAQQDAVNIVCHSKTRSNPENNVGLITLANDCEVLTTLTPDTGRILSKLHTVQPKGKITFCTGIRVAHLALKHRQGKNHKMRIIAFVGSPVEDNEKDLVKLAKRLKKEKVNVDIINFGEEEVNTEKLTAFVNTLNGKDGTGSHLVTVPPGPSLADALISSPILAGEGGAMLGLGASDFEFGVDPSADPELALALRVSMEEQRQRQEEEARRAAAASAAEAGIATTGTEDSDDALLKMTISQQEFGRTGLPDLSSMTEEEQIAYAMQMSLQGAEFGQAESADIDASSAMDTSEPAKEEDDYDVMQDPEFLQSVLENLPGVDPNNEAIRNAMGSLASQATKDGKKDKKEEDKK

`ARTKQTARKSTGGKAPRKQ (H3C1 residues 1-19)` gave a Kd of 2 µM (RBBP4 (Homo sapiens, UniProt Q09028); ITC; peptide).
For `B1 (CFH 1108-1231 R1215Q)`, the Kd was 13.1 ± 0.6 µM (C3 996-1303 (Homo sapiens, UniProt P01024); SPR).
`ENAH EVH1 domain (Homo sapiens)` gave a Kd of > 150 µM (KANK4 peptide (Homo sapiens); BLI).
`B2 (Mena EVH1 1-113)` gave a Kd of 3.1 µM (PCARE peptide (Homo sapiens); intrinsic tryptophan fluorescence).
`SDEMPNNAKRRRRSQSMIANKRIHQAFQEDEGDEDWEEEEHKPKAKRR (abo1 25-72 (Schizosaccharomyces pombe, UniProt O14114))` gave a Kd of 20 ± 2.5 µM (spt16 1-442 K264E/F364A/R365E (Schizosaccharomyces pombe, UniProt O94267); BLI).
For `KLVVVGAGDV`, “HLA class I surface increase” read 9.6% (HLA class I histocompatibility antigen, A alpha chain, allele A*02:01 (Homo sapiens, UniProt P04439); MHC class I stabilisation, flow cytometry; peptide, TAP2-knockout TISI monoallelic cells; 25 µM, 18 h, 37 °C, together with: β2-microglobulin 3 µg/mL; reference: DMSO).
With `B3 (IgG L:G68E)` the Kd was 0.00052 µM (IL13 fragment (Homo sapiens); SPR; antibody).
For `CREBBP TAZ1 (Homo sapiens)`, the Kd was 32 ± 8.2 µM (NFE2L2 155-220, fluorescein label (Homo sapiens, UniProt Q16236); fluorescence titration).
For `B4 (FBLN4)`, the Kd was 0.0226 µM (ELN 27-724 (Homo sapiens, UniProt P15502-2); SPR).
`petF ferredoxin (Synechocystis sp. PCC 6803, UniProt P27320)` gave a Kd of 11.5 ± 3.8 µM (narB R351Q (Synechococcus sp. PCC 7942); UV-visible difference titration).
For `B5 (UBE3A 1-64)`, the Kd was 0.204 ± 0.017 µM (PSMD4 305-377 (Homo sapiens, UniProt P55036); ITC).
With `STIM1 (UniProt Q13586)` the Kd was 2.6 µM (ERO1A (Homo sapiens, UniProt Q96HE7); BLI).
`CXCL8, Alexa Fluor 647 label (Homo sapiens)` gave a Kd of 0.367 µM (CXCR1 (Homo sapiens, UniProt P25024); flow cytometry; HEK293A.CXCR1).
With `KLLITIHDRKEAAKAEEERARAKWDTANNPLYKEATSTFTNITYRGT (ITGB3 cytoplasmic tail 742-788 FF/AA (UniProt P05106); sequence looked up)` the Kd was 2030 µM (Tln1 309-405 (Mus musculus, UniProt P26039); NMR titration).
The Kd of `PUX7 fragment (Arabidopsis thaliana)` is reported as 3.2 ± 0.4 µM (CDC48A 1-463 (Arabidopsis thaliana, UniProt P54609); ITC; 10 °C).
With `B6 (Pigr 19-135 F5A/Y23A/P25A)` the Kd was 0.445 µM (IgA Fc/J chain CH2-CH3 domains, dimeric 113-344 (Mus musculus); SPR).
The Kd of `CALLLSAPRR (GOT2 (Gallus gallus); fluorescein label)` is reported as 24.7 µM (HSPA9 mature G489E (Homo sapiens, UniProt P38646); FP; peptide).
The Kd of `LPDTDDRHRIEEKRKRTAETFKSIMKKSPFNGP (Rela 289-321 Y306A (Mus musculus, UniProt Q04207); sequence looked up)` is reported as 2.6 ± 0.04 µM (NFKBIA 67-206 (Homo sapiens, UniProt P25963); ITC; peptide).
`B7 (FIBH residues 1259-1853)` gave a Kd of 1.12 ± 0.0162 µM (ELN (Homo sapiens, UniProt P15502); FCS).
For `B8 (PLXNC1 1198-1305 T1264V/R1265V)`, the Kd was 30.3 ± 9.85 µM (RND2 1-227 (Homo sapiens, UniProt P52198); SPR).
With `GRGRGRGRGRGRGRGRGRGRGRGRGRGRGRGRGRGRGRGR ((GR)20 20 repeats; TAMRA label N-terminal)` the Kd was 0.0852 ± 0.0123 µM (FUS 267-526 (Homo sapiens, UniProt P35637); fluorescence polarisation; peptide).
With `ENSSEEEFFDAHEGFSDSDE (Pitpnm1 343-362 (Mus musculus, UniProt O35954); sequence looked up)` the Kd was 0.92 µM (Vapb 1-125 (Mus musculus, UniProt Q9QY76); ITC).
For `EPHA2 fragment, auto-phosphorylated (Homo sapiens)`, the Kd was 0.34 µM (EFNA1 (Homo sapiens, UniProt P20827); BLI; apparent).
With `F9 heavy and light chains, activated (UniProt P00740)` the Kd was 0.0012 µM (F8 activated, A1/A2/A3-C1-C2 R336Q/R562Q/D519V/E665V (Homo sapiens); FXa generation, factor Xa generation rate; together with: FX).
`B9 (C1S 438-688 S632A)` gave a Kd of 9.6 µM (SERPING1 111-500 K390A/Q392A (Homo sapiens, UniProt P05155); SPR; together with: Ca2+).
`ACRGDGWCG (cyclic RGD peptide; disulfide-cyclized, aminocaproic acid, FITC)` has a Kd of 0.0046 µM (ITGAV/ITGB3 ectodomain, soluble, clasped; fluorescence polarisation; peptide).
`GCVRLHESCLGQQVPCCDPAATCYCTGRGDEKLRCYCR (designed peptide AgRP scaffold)` has a Kd of 0.015 µM (ITGAV/ITGB3 K562 cells; flow cytometry; designed binder, U87MG).
For `B10 (Cacna1c 1647-1777)`, the Kd was 9.27 µM (Jph2 1-440 S165A (Mus musculus, UniProt Q9ET78); ITC).
`BSG extracellular domain deleted` has a Kd of 0.032 µM (G3BP1 (Homo sapiens, UniProt Q13283); SPR).
`B11 (mxt 577-640)` gave a Kd of 0.00052 µM (eIF4E1 69-248 (Drosophila melanogaster, UniProt P48598-2); ITC).
`SCN2A IQ region R1902C (Homo sapiens) (sequence not shown)` gave a Kd of 0.0525 µM (CALM1 (Homo sapiens, UniProt P0DP23); fluorescence titration; pH 7.4, 22 °C, together with: calcium).
With `B12 (CFH domains 1108-1231)` the Kd was 4.4 ± 0.2 µM (C3 C3dg 955-1303 (Homo sapiens, UniProt P01024); SPR).
For `FGB dimer (Homo sapiens)`, the Kd was 0.0272 µM (CDH2 EC3-EC5 217-551 (Homo sapiens); SPR; Langmuir fit, together with: CaCl2).
With `GLP-1/MC4 receptor agonist chimeric peptide, D-Ser position 2` the Kd was 0.647 µM (MC3R (Homo sapiens, UniProt P41968); radioligand binding).

Repeated from above:
`B9 (C1S 438-688 S632A)` gave a Kd of 9.6 µM (SERPING1 111-500 K390A/Q392A (Homo sapiens, UniProt P05155); SPR; together with: Ca2+).
`ACRGDGWCG (cyclic RGD peptide; disulfide-cyclized, aminocaproic acid, FITC)` has a Kd of 0.0046 µM (ITGAV/ITGB3 ectodomain, soluble, clasped; fluorescence polarisation; peptide).
`GCVRLHESCLGQQVPCCDPAATCYCTGRGDEKLRCYCR (designed peptide AgRP scaffold)` has a Kd of 0.015 µM (ITGAV/ITGB3 K562 cells; flow cytometry; designed binder, U87MG).
For `B10 (Cacna1c 1647-1777)`, the Kd was 9.27 µM (Jph2 1-440 S165A (Mus musculus, UniProt Q9ET78); ITC).
